Measurements pooled from the literature.
Compare with care: the assays were run in different laboratories. “And” joins repeats or separate records; there may be more than shown. Numbers after ± are the reported error.
IFIT1: Antiviral innate immune response effector IFIT1 (IFIT1, Homo sapiens, UniProt P09914)
VHL with elongin B/C: von Hippel-Lindau disease tumor suppressor, with elongin B/C (VHL, Homo sapiens, UniProt P40337)
STING1 H232R: Stimulator of interferon genes protein (STING1, Homo sapiens, UniProt Q86WV6, H232R)

For `CN(C)c1nc(O)c2c(n1)n([C@@H]1O[C@H](COP(=O)(O)OP(=O)([O-])OP(=O)(O)OC[C@H]3O[C@@H](n4cnc5c(N)ncnc54)[C@H](O)[C@@H]3OP(=O)(O)OC[C@H]3O[C@@H](n4cnc5c(=O)[nH]c(N)nc54)[C@H](O)[C@@H]3O)[C@@H](O)[C@H]1O)c[n+]2C`, the Kd was 0.03 µM (IFIT1; binding, microscale thermophoresis; pH 7.5).
`Nc1nnc(-c2ccccc2O)cc1N1CCNCC1` gave a Kd of over 10 µM (VHL (Homo sapiens, UniProt P40337); binding, SPR).
The Kd of `Cc1cccc2c1N(C(=O)n1ccnn1)CC2` is reported as 1170 µM (KAI2 (Arabidopsis thaliana, UniProt Q9SZU7, D217E); ITC; D217E mutant, mean).
`CC(=O)N1c2ccc(-c3ccc(CNC(=O)c4cn5cc(-c6cnc(N)nc6)nc(N6CCOCC6)c5n4)cc3)cc2CC[C@@H]1C` gave a Kd of 0.083 µM (Bromodomain testis-specific protein, BD1 (BRDT, Homo sapiens, UniProt Q58F21); binding, competition with immobilised ligand).
`O=C(NO)c1cnc(NC2(c3cccc(F)c3)CCCCC2)nc1` has a Kd of over 30.2 µM (Isochorismatase domain-containing protein 1 (Homo sapiens, UniProt Q96CN7); inhibitor, competition pulldown; SW620 and MV4-11 lysate; 1 h).
The Kd of `O=C(O)[C@H]1O[C@@H](O[C@H]2[C@H](O)[C@H](O)[C@H](O[C@H]3[C@H](O)[C@H](O)[C@H](O)O[C@@H]3C(=O)O)O[C@H]2C(=O)O)[C@@H](O)[C@@H](O)[C@@H]1O[C@@H]1O[C@@H](C(=O)O)[C@@H](O)[C@H](O)[C@@H]1O` is reported as 439 µM (Beta-lactoglobulin (LGB, Bos taurus, UniProt P02754, A134V/G80D); isothermal titration calorimetry; pH 2.65, 37 °C, 50 mM KH2PO4).
The Kd of `CCc1nc2cc3ccccc3cc2cc1C(=O)N[C@@H](CCCCN)C(=O)N[C@@H](C/C=C/C[C@H](NC(=O)[C@H](CCCCN)NC(=O)c1cc2cc3ccccc3cc2nc1CC)C(=O)N1CCC[C@H]1C(=O)NCCCN)C(=O)N1CCC[C@H]1C(=O)NCCCN` is reported as 0.0803 µM (CUG–CAG duplex RNA; SPR).
`O=P(O)(O)O[C@H]1[C@H](OP(=O)(O)O)[C@@H](OP(=O)(O)O)[C@@H](O)[C@@H](O)[C@@H]1OP(=O)(O)O` gave a Kd of 0.94 ± 0.25 µM (Inositol-tetrakisphosphate 1-kinase (Homo sapiens, UniProt Q13572); binding, microscale thermophoresis; added: ATP 10 µM).
For `CC(=O)NCC1CCCCN1c1nc(N(C)CCc2ncc(C)s2)nc(N2CC3C(CCOc4cc(-c5scnc5C)ccc4CNC(=O)[C@@H]4C[C@@H](O)CN4C(=O)[C@@H](NC(=O)C4(F)CC4)C(C)(C)C)C3C2)n1` (stereo partly shown), the Kd was 0.249 µM (VHL with elongin B/C; binary binding, SPR).
The Kd of `C[n+]1cn([C@@H]2O[C@H](COP(=O)(O)OP(=O)([O-])OP(=O)(O)OC[C@H]3O[C@@H](n4cnc5c(N)ncnc54)[C@H](O)[C@@H]3OP(=O)(O)OC[C@H]3O[C@@H](n4cnc5c(=O)[nH]c(N)nc54)[C@H](O)[C@@H]3O)[C@@H](O)[C@H]2O)c2nc(N)nc(O)c21` is reported as 0.1 µM (IFIT1; binding, microscale thermophoresis; pH 7.5).
`O=C(N[C@@H](CCNC(=O)c1ccc([N+](=O)[O-])o1)c1nc2ccccc2[nH]1)c1ccc(C2CCC2)cc1` gave an EC50 of 5.7 µM (STING1 H232R; reporter gene, inhibitor; THP1-Dual KI-hSTING-R232; 24 h, 1 h preincubation, added: diABZI 500 nM).
`Cc1ncsc1-c1ccc(C(C)NC(=O)C2CC(O)CN2C(=O)C(NC(=O)CCCCCCCCCCN2CCCC(Nc3ncc(Cl)c(Nc4ccccc4S(=O)(=O)C(C)C)n3)C2)C(C)(C)C)cc1` (stereo not shown) — result for “log2 fold change”: -1.11 (22Rv1; RNA-seq, refers to: RIMS1 mRNA; concentration not given; reference: DMSO).
For `Cc1cc2nc3c(=O)[nH]c(=O)nc-3n(C[C@H](O)[C@H](O)[C@H](O)COP(=O)(O)OP(=O)(O)OC[C@H]3O[C@@H](n4cnc5c(N)ncnc54)[C@H](O)[C@@H]3OP(=O)(O)OC[C@H]3O[C@@H](n4cnc5c(=O)[nH]c(N)nc54)[C@H](O)[C@@H]3O)c2cc1C`, the Kd was 21 µM (IFIT1; binding, microscale thermophoresis; pH 7.5).
The Kd of `Cc1c2ccnc(C(=O)N[C@H](C)CN(C)C)c2cc2c3cc(OCCCN4CCN(C)CC4)ccc3n(C)c12` is reported as 1.13 ± 0.46 µM (r(G4C2)8 G-quadruplex RNA; binding, microscale thermophoresis; added: K+).
`Cc1c[nH]c2nccc(-c3ccc(C(=O)N[C@@H]4c5c(F)cc(C(F)F)cc5C[C@@H]4O)cn3)c12` gave a Kd of 0.42 µM (STK33 (Homo sapiens, UniProt Q9BYT3); binding, competition with immobilised ligand).
For `BP(=O)(OP(=O)([O-])OC[C@H]1O[C@@H](n2c[n+](C)c3c(=O)[nH]c(N)nc32)[C@H](O)[C@@H]1O)OP(=O)([O-])OC[C@H]1O[C@@H](n2c[n+](C)c3c(=O)[nH]c(N)nc32)[C@H](O)[C@@H]1O`, the Kd was 0.09 µM (Eukaryotic translation initiation factor 4E, residues 28-217 (Eif4e, Mus musculus, UniProt P63073); cap binding, fluorescence quenching titration).
The Kd of `CCc1nc2cc3ccccc3cc2cc1C(=O)N1CCC[C@H]1C(=O)N[C@@H](C/C=C/C[C@H](NC(=O)[C@@H]1CCCN1C(=O)c1cc2cc3ccccc3cc2nc1CC)C(=O)N[C@@H](CCCCN)C(=O)NCCCN)C(=O)N[C@@H](CCCCN)C(=O)NCCCN` is reported as 0.427 µM (CUG–CAG duplex RNA; SPR).
`NS(=O)(=O)c1cc(C(=O)NCCCC(=O)O)c(NC2CCCCC2)cc1Cl` has a Kd of 14 µM (CA7 (Homo sapiens, UniProt P43166); pH 7).
The Kd of `Nc1ncnc2c1ncn2[C@@H]1O[C@@H]2COP(=O)(O)O[C@H]3C[C@H](n4cnc5c(N)ncnc54)O[C@@H]3COP(=O)(O)O[C@@H]1C2` is reported as 15.1 ± 14.5 µM (STING1 (Homo sapiens, UniProt Q86WV6, R220H); binding).
With `CO[C@@H]1[C@H](OP(=O)(O)OC[C@H]2O[C@@H](n3cnc4c(=O)[nH]c(N)nc43)[C@H](O)[C@@H]2O)[C@@H](COP(=O)(O)OP(=O)([O-])OP(=O)(O)OC[C@H]2O[C@@H](n3c[n+](C)c4c(O)nc(N)nc43)[C@H](O)[C@@H]2O)O[C@H]1n1cnc2c(N)ncnc21` the Kd was 0.52 µM (IFIT1; binding, microscale thermophoresis; pH 7.5, 70 nt capped RNA).
`CC(=O)NCC1CCCCN1c1nc(NCCn2nnc(C)n2)nc(N2CC3C(CCOc4cc(-c5scnc5C)ccc4CNC(=O)[C@@H]4C[C@@H](O)CN4C(=O)[C@@H](NC(=O)C4(F)CC4)C(C)(C)C)C3C2)n1` (stereo partly shown) has a Kd of 0.027 µM (VHL with elongin B/C; binary binding, SPR).
With `C[n+]1cn([C@@H]2O[C@H](COP(=O)(O)OP(=O)([O-])OP(=O)(O)OC[C@H]3O[C@@H](n4ccc(=O)[nH]c4=O)[C@H](O)[C@@H]3OP(=O)(O)OC[C@H]3O[C@@H](n4cnc5c(=O)[nH]c(N)nc54)[C@H](O)[C@@H]3O)[C@@H](O)[C@H]2O)c2nc(N)nc(O)c21` the Kd was 0.13 µM (IFIT1; binding, microscale thermophoresis; pH 7.5, 70 nt capped RNA).
Under “log2 fold change”, `COC1CN([C@H]2CC[C@H]([C@@]3(C)Oc4c(Cl)cc(C(=O)NCc5c(SC)cc(C)[nH]c5=O)c(C)c4O3)CC2)C1` is recorded as 0.986 (RNA-seq, refers to: mouse COMMD3-BMI1 homolog; mouse, HT-1376 xenograft, whole blood; dose not given, PRC2 target gene; reference: vehicle).
For `Cc1ncsc1-c1ccc(CNC(=O)[C@@H]2C[C@@H](O)CN2C(=O)[C@@H](NC(=O)C2(F)CC2)C(C)(C)C)c(OCCC2CN(c3nc(NCC(C)(C)C4(O)CCOC4)nc(N4CCC[C@H]4Cn4ccnn4)n3)C2)c1` (stereo partly shown), the Kd was 0.011 µM (VHL with elongin B/C; binary binding, SPR).
For `N=C(NCC[C@H](NC(=O)c1ncn(-c2ccccc2)n1)c1nc2ccccc2[nH]1)c1ccc([N+](=O)[O-])o1`, the EC50 was 9.1 µM (STING1 H232R; reporter gene, inhibitor; THP1-Dual KI-hSTING-R232; 24 h, 1 h preincubation, added: diABZI 500 nM).
With `CC[C@H](C)[C@H](NC(=O)[C@H](C)NC(=O)[C@@H](N)CO)C(=O)N[C@@H](CCCNC(=N)N)C(=O)NCC(=O)N[C@@H](C)C(=O)O` the Kd was 0.0067 ± 0.0006 µM (AimR transcriptional regulator (aimR, Bacillus phage phi3T, UniProt P0DOE3); ITC; phage phi3T; pH 8, 25 °C).
The Kd of `Nc1nc2c(ncn2[C@@H]2O[C@H](COP(=O)(O)O[C@H]3[C@@H](O)[C@H](n4ccc(=O)[nH]c4=O)O[C@@H]3COP(=O)(O)OP(=O)(O)OP(=O)(O)O)[C@@H](O)[C@H]2O)c(=O)[nH]1` is reported as 26000 µM (IFIT1; binding, microscale thermophoresis; pH 7.5).
`CN1CCN(c2ccc3cc(COC(=O)Nc4cccc(C(=O)NO)c4)ccc3c2)CC1` has a Kd of 3.48 µM (Alpha-synuclein, pre-formed fibrils (SNCA, Homo sapiens, UniProt P37840); binding, ITC; PBS; 25 °C).
For `CC(=O)N[C@H]1[C@H]([C@H](O)[C@H](O)CNC(=O)c2ccc(-c3ccccc3)cc2)O[C@@](OCc2cn(CC(O)Cn3c([N+](=O)[O-])cnc3C)nn2)(C(=O)O)C[C@@H]1O` (stereo partly shown), the Kd was 7.55 µM (CD22 (Homo sapiens, UniProt P20273); binding, ITC).
With `C=CC(=O)N1C[C@H](C)N(c2nc(OC[C@@]34CCCN3C[C@H](F)C4)nc3c(F)c(-c4ccc(F)c5sc(N)c(C#N)c45)c(C(F)(F)F)cc23)C[C@H]1C` the Kd was 9.8 µM and 10.3 µM (GTPase KRas, GppNHp-bound (KRAS, Homo sapiens, UniProt P01116, Q61H)).
The Kd of `CC(=O)c1cnc2ccc(-c3cc(Cl)c(O)c(Cl)c3)nc2c1N[C@H]1CC[C@H](CN(C)C)CC1` is reported as 1.1 µM (Receptor-like protein kinase FERONIA (FER, Arabidopsis thaliana, UniProt Q9SCZ4, K565A); binding, SPR; mutant protein).

Some of these lines once more:
`O=P(O)(O)O[C@H]1[C@H](OP(=O)(O)O)[C@@H](OP(=O)(O)O)[C@@H](O)[C@@H](O)[C@@H]1OP(=O)(O)O` gave a Kd of 0.94 ± 0.25 µM (Inositol-tetrakisphosphate 1-kinase (Homo sapiens, UniProt Q13572); binding, microscale thermophoresis; added: ATP 10 µM).
For `CC(=O)NCC1CCCCN1c1nc(N(C)CCc2ncc(C)s2)nc(N2CC3C(CCOc4cc(-c5scnc5C)ccc4CNC(=O)[C@@H]4C[C@@H](O)CN4C(=O)[C@@H](NC(=O)C4(F)CC4)C(C)(C)C)C3C2)n1` (stereo partly shown), the Kd was 0.249 µM (VHL with elongin B/C; binary binding, SPR).
The Kd of `C[n+]1cn([C@@H]2O[C@H](COP(=O)(O)OP(=O)([O-])OP(=O)(O)OC[C@H]3O[C@@H](n4cnc5c(N)ncnc54)[C@H](O)[C@@H]3OP(=O)(O)OC[C@H]3O[C@@H](n4cnc5c(=O)[nH]c(N)nc54)[C@H](O)[C@@H]3O)[C@@H](O)[C@H]2O)c2nc(N)nc(O)c21` is reported as 0.1 µM (IFIT1; binding, microscale thermophoresis; pH 7.5).
